Experimental data of several laboratories.
Lines come from different studies, so protocols differ. Values joined by “and” are separate records of one study, mostly repeats; a detail may differ. ± marks the error that the study gave.

Compound = COc1cc2c(cc1OC)CN(CCc1ccc(NC(=O)c3cccc4c(=O)c5cccc(OC)c5[nH]c34)cc1)CC2; system = 0.22 µm nylon filter; measurement = drug loss on filter; result = < 1%
Compound = CN1CC[C@@H](c2c(O)cc(O)c3c(=O)cc(-c4ccc(C(F)(F)F)cc4Cl)oc23)[C@@H]1CO; assay = measured: Hypertension; system = AML; setting = oral, 150 mg, intermittent dosing; measurement = patients with adverse event; result = 0%
Compound = O=c1nc(NO)ccn1[C@@H]1O[C@H](CO)[C@@H](O)[C@H]1O; system = rat amniotic fluid dialysate; setting = 25 ng/mL, 6 h, 10 °C, low QC concentration, added: molnupiravir; measurement = autosampler stability; result = 98.9 ± 3.13%
Compound = O=S(=O)(Nc1ccccc1)c1ccc(NC(=S)Nc2ccccc2)cc1; assay = measured: EO%; system = female mouse, blood; setting = oral, 20 mg/kg daily, 14 days; measurement = blood cell fraction; result = 0.72%
Compound = CC(C)c1nc(CN(C)C(=O)N[C@@H](CCN2CCOCC2)C(=O)N[C@H](CC[C@H](Cc2ccccc2)NC(=O)OCc2cncs2)Cc2ccccc2)cs1; system = human; setting = oral, 150 mg, drug interaction trial; measurement = deaths; result = 0%
Compound = COc1ncnn2ccc(-c3cnc4nc(C)n(Cc5nnc([C@@H](C)F)o5)c4c3)c12; system = human patients; setting = oral, dose not given, grade 1 adverse drug reaction; measurement = incidence of Dysgeusia; result = 7.1%
Compound = COc1cc2c(Oc3ccc4[nH]c(C)cc4c3F)ccnc2cc1OCC1(N)CC1; system = paediatric recurrent refractory sarcoma; setting = 10 mg; measurement = grade 3 intestinal obstruction; result = 0%
Compound = COc1ccc(-c2c(-c3ccc(C#N)c(F)c3)nc(N3CCC(N)CC3)n(C)c2=O)cc1F; assay = measured: Constipation; system = neuroendocrine neoplasm patients; setting = oral, 60 mg, grade 3 to 4, dose expansion; measurement = treatment-related adverse event incidence; result = 0%
Compound = C[C@@H]1OC(=O)NN=C1c1ccc(-c2ccc(F)cc2)c(C(F)(F)F)c1; assay = phase I trial, measured: Nausea all grades; system = human patients; setting = 10 mg loading then 0.5 mg daily; measurement = patients with adverse event; result = 100%
Compound = O=c1ccc2cc3ccoc3cc2o1; assay = three freeze-thaw cycles; system = rat plasma; setting = 1000 ng/mL, -70 °C freeze; measurement = accuracy; result = 94.2%
Compound = C[C@]1(CO)Cc2ncn(-c3ccc(C#N)c(Cl)c3)c2C(=O)O1; system = human, Japanese, plasma; setting = 1 days, multiple rising dose, range of means; measurement = apparent terminal t1/2; result = 5.4 to 6 h
Compound = CC[C@H](C)[C@H](NC(=O)[C@H](Cc1ccccc1)NC(=O)[C@H](CCC(=O)O)NC(=O)[C@H](CCCNC(=N)N)NC(=O)[C@H](C)NC(=O)[C@H](C)NC(=O)[C@H](CCC(N)=O)NC(=O)[C@H](CCC(=O)O)NC(=O)[C@H](CCC(=O)O)NC(=O)[C@H](CC(C)C)NC(=O)[C@H](Cc1ccc(O)cc1)NC(=O)[C@H](CO)NC(=O)[C@H](CO)NC(=O)[C@@H](NC(=O)[C@H](CC(=O)O)NC(=O)[C@H](CO)NC(=O)[C@@H](NC(=O)[C@H](Cc1ccccc1)NC(=O)[C@@H](NC(=O)CNC(=O)[C@H](CCC(=O)O)NC(=O)[C@H](C)NC(=O)CCc1cnc[nH]1)[C@@H](C)O)[C@@H](C)O)C(C)C)C(=O)N[C@@H](C)C(=O)N[C@@H](Cc1c[nH]c2ccccc12)C(=O)N[C@@H](CC(C)C)C(=O)N[C@H](C(=O)N[C@@H](CCCNC(=N)N)C(=O)NCC(=O)N[C@@H](CCCNC(=N)N)C(=O)N[C@@H](CCCCNC(=O)COCCOCCNC(=O)COCCOCCNC(=O)CC[C@H](NC(=O)CCCCCCCCCCCCCCCCC(=O)O)C(=O)O)C(=O)NCC(=O)NCC(=O)N[C@@H](CO)C(=O)N[C@@H](CCCCNC(=O)[C@H](CCCCNC(=O)[C@H](CCCCNc1c(NCCCCCN(O)C(=O)CCC(=O)NCCCCCN(O)C(=O)CCC(=O)NCCCCCN(O)C(C)=O)c(=O)c1=O)Nc1c(NCCCCCN(O)C(=O)CCC(=O)NCCCCCN(O)C(=O)CCC(=O)NCCCCCN(O)C(C)=O)c(=O)c1=O)NC(=O)[C@H](CCCCNc1c(NCCCCCN(O)C(=O)CCC(=O)NCCCCCN(O)C(=O)CCC(=O)NCCCCCN(O)C(C)=O)c(=O)c1=O)Nc1c(NCCCCCN(O)C(=O)CCC(=O)NCCCCCN(O)C(=O)CCC(=O)NCCCCCN(O)C(C)=O)c(=O)c1=O)C(=O)O)C(C)C [zirconium-89 labelled]; assay = ex vivo gamma counting; system = Sprague-Dawley rat, male, spleen; setting = intravenous, 1 nmol, 24 h; measurement = tissue uptake; result = 0.992 %ID/g and 1.21 %ID/g and 1.16 %ID/g and 1.53 %ID/g and 1.11 %ID/g
Compound = O=C1Nc2cc3[nH]nc(-c4ccncc4)c3cc2CN1Cc1ccccc1; assay = CTCAE v4.03; system = human, relapsed or refractory advanced solid tumours; setting = intravenous, 7.2 mg/kg; measurement = patients with photopsia; result = 33%

Excerpt of the above:
Compound = C[C@@H]1OC(=O)NN=C1c1ccc(-c2ccc(F)cc2)c(C(F)(F)F)c1; assay = phase I trial, measured: Nausea all grades; system = human patients; setting = 10 mg loading then 0.5 mg daily; measurement = patients with adverse event; result = 100%
